Measured values gathered from unrelated publications.
Each numbered part is a random draw from the data of one study; scales do not carry over between parts. Substitutions count along the parent as printed.

Sample 1
Target: OGT, full length, His-tagged (human)
Method: phage display, sequencing
Medium: in vitro
Tested at: 1 µg OGT
Setting: single substitutions, 15-mer displayed peptide, unchanged parent 5.27
Reference: input library
Reading: higher = stronger binding
Measurement: fold enrichment
Starting sequence: peptide; GDFPVMFMPKYSIIY
GDFPVMFMPKYNIIY [S12N]: 1.25 fold
GDFPVMFMPKYSIKY [I14K]: 3.08 fold
GDFPVMFMPKYDIIY [S12D]: 1.57 fold
GDFPVMFMPKYSHIY [I13H]: 1.11 fold
GDFPVMFRPKYSIIY [M8R]: 1.34 fold
GDFPVMFMPLYSIIY [K10L]: 3.11 fold
GDFPVMFGPKYSIIY [M8G]: 1.17 fold
GDFPVYFMPKYSIIY [M6Y]: 6.13 fold
HDFPVMFMPKYSIIY [G1H]: 7.52 fold
GDFPPMFMPKYSIIY [V5P]: 4.18 fold
GDFPLMFMPKYSIIY [V5L]: 11.6 fold
GDFPVMVMPKYSIIY [F7V]: 1.53 fold
GDFPVMFMPKYTIIY [S12T]: 4.79 fold
GDFPVMFMPKYSDIY [I13D]: 0.631 fold
GDFPVMFMPKYSITY [I14T]: 2.12 fold
GDFPVMFMPKYSIIA [Y15A]: 1.79 fold
GDFPVMFMPKYSIMY [I14M]: 1.81 fold
GDFPVMFMPKYSEIY [I13E]: 0.812 fold
GDFPEMFMPKYSIIY [V5E]: 4.55 fold
GDFPVMFMPPYSIIY [K10P]: 0.98 fold
GVFPVMFMPKYSIIY [D2V]: 4.52 fold
GDFPVMFMPKYSIPY [I14P]: 1.02 fold
GDFPVFFMPKYSIIY [M6F]: 8.25 fold

Sample 2
Target: Histone acetyltransferase KAT6A, both winged helices, GST fusion (KAT6A, Homo sapiens, UniProt Q92794, residues 1-181)
Method: protein binding microarray
Molecule type: double-stranded DNA, one strand shown
Medium: in vitro
Tested at: not given
Setting: 8-mer, flanks averaged, mean of 2 arrays, mostly near background
Reference: not given
Reading: higher = stronger binding
Measurement: E-score
Construct (chain): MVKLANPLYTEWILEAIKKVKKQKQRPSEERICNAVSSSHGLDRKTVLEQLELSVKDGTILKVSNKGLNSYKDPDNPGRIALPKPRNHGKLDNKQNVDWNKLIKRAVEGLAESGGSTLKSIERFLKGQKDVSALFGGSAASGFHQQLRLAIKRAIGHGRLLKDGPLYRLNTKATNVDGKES
CCCTAGGC: -0.219
GCATGTCA: 0.0587
AAAGCTTT: 0.276
TCCATCCA: -0.212
ATGAACCA: -0.00609
CTAATTAG: -0.135
ATCTTCTA: -0.0149
TATGAGGA: -0.187
CATACTTC: -0.109
GCCACCAA: -0.0386
AACTCTGA: 0.0427
ATTTGTGA: -0.0436
ACGAGCGC: 0.293
AATTTTAT: 0.0502
ACTAGGAT: -0.0891
ACAGAATC: -0.104
AACAGAGC: -0.0425
CCTCTATC: -0.279
CGCAATCA: 0.221

Sample 3
Target: PABPC1L2, full length, GST fusion (mouse, UniProt A0ABA7IW68)
Method: RNAcompete
Molecule type: RNA
Medium: in vitro
Tested at: 20 nM
Setting: 7-mer, probes averaged, single round
Reference: mean of 7-mers
Reading: higher = stronger binding
Measurement: 7-mer Z-score
Construct (chain): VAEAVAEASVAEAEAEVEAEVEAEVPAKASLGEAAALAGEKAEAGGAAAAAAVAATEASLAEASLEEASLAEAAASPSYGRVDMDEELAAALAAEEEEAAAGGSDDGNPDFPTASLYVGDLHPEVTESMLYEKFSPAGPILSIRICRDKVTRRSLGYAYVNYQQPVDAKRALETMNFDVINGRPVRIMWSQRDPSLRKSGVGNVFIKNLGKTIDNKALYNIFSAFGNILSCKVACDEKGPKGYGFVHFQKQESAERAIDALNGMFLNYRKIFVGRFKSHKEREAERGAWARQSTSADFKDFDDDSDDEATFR
CAAUGCU: -0.211
AGUCCAG: -0.182
UUAAGAG: -0.0283
GGGUUGG: 0.0569
AAGGCCG: 0.0932
GACUGCG: -0.0156
UCGAGCA: -0.133
CGACGCG: -0.173
UUGAAGA: -0.0826
CGCAGGA: 0.225
CGGGCCU: -0.142
CUGCCCG: -0.304
AUUCAAG: 0.046
CACGCAC: -0.0591
CGGUUGA: -0.202
CCUCAUC: -0.325
UACAAGA: -0.0482
CCCGAAA: 0.948
UCCUAGA: -0.0917
CUCUGAG: -0.264
GCCCUAG: -0.322
CCACAGG: -0.197
CGUCGAU: -0.324
GCAAGUU: -0.153
UGACUUA: -0.249

Sample 4
Target: Interferon regulatory factor 5, full length, phosphomimetic (IRF5, Homo sapiens, UniProt Q13568-2, residues 1-514, K96S/S451D/S453D/S456D/S462D)
Method: protein-binding microarray
Molecule type: double-stranded DNA, one strand shown
Medium: in vitro
Tested at: 250 nM
Setting: 60-bp whole probe
Added: salmon DNA 0.4 mg/ml
Reference: random background probes
Reading: higher = stronger binding
Measurement: log fluorescence
Constant ends, left off below: GCCTAGCAC … GTCTTGATTCGCTTGACGCTGCTG
ATGAGCTTCAAACCATAACCGTGCTAG: 0.0365 z-score
TCATAATTCTGATTGGAACTGTGCTAG: 0.315 z-score
GACGGTATCGTTATCGGGACGTGCTAG: 3.15 z-score
TTAGGTATCCTTCTCATTTAGTGCTAG: 0.423 z-score
GCCTACTCGCTCGTCCGGAGGTGCTAG: -0.306 z-score
TTAGATTTCAGTTCAGATTAGTGCTAG: 2.28 z-score
TTAGGACTCGGGTTTCGGTTAGTGCTA: 7.05 z-score
GTAGGACTGCTACTGCTTTAGTGCTAG: -0.707 z-score
GAACATTTCAATTAGAAAAAGTGCTAG: 1 z-score
TCACCACCCACTCTGGCACTGTGCTAG: -0.177 z-score
TCATTTATCCCTGACAGACTGTGCTAG: 0.567 z-score
TCATGTTTTCATTTTATACTGTGCTAG: 2.5 z-score
GACGGTATCGACTATCGGGTCGTGCTA: 4.98 z-score
GACGGTTTCGGGTAGCGGGACGTGCTA: 7.61 z-score
GACGGTTTCCTACGGCTGACGTGCTAG: 0.188 z-score
GACTGTCTCGGTTTCGGGACGTGCTAG: 3.85 z-score
TCAATCGTAAGCAAAAAACTGTGCTAG: 0.633 z-score
TCACTACTGTATTTGGCACTGTGCTAG: 0.274 z-score
GACGATTTCGTGACTGGAGACGTGCTA: 0.511 z-score
GACGGTCTCCTTATCCGGACGTGCTAG: -0.06 z-score
TTAGGTCTCCTGTTCCTTTAGTGCTAG: -0.23 z-score

Sample 5
Target: RNA binding protein fox-1 homolog 2, RRM domain, GST-SBP tag (RBFOX2, Homo sapiens, UniProt O43251-10, residues 100-194)
Method: RNA Bind-n-Seq
Molecule type: RNA
Medium: in vitro
Tested at: 365 nM
Setting: natural RNA segment, single round, ends assumed
Reference: no-protein control
Reading: higher = stronger binding
Measurement: RBNS enrichment (R)
Constant ends, left off below: GGGAGUUCUACAGUCCGACGAUC … UGGAAUUCUCGGGUGCCAA
UGCCAUCACCAUAACCUCUGGGGACCCCAACCUCAGAGGCAGCUUCAAGUGCCUUUUGCUGCGCACCAAUGCCCAGCAGGGGAGGUGAGGGGGGCUGGCGGGGCGAAGUU: 0.397
UUUGCUACUGAAUGCUUACACUAAUCUUGGUGUUUAAUGUUACAUGCUUAAAUUCUUUUCAGUUUUCACAGUGGCACAUUUAGGCAUGGGGAUAGUACUAAUUAUGAAAU: 1.24
GUAUAGAUUGUGCAUUUAAAGCUGUUACCAAGUUGUCAGAACCCUAAGAAUGAAAACAGGUCAUAUGUAAUAUUUUGUUUGUAAGUAUCCUUUGUAUCAUAGCAAAGGAA: 1.09
AAACCUCUGUUUCUAUAGAUUUAUUUUUAUACAUGUUUAAUUAUUGAAUCAUAAAAUGGGGACAUAUCAUCAAAUCCAAAGUGGUAACAGUGCUAAAUAAGCAUGUAUGA: 0.852
CCUUUCUUUAAGCUGUGUACAGUGAAAAUUGUCUUUACUGUAUUUUUGUUCUCUGGUAAUGUAAUAAGCAUGAUGGUGCCUUCUAUUAAUACAUCAUUCCAGUCUUGCUG: 5.06
CGAGGCAGCUGACGAGGCAGCUGGCCCAGUCUUGGGAGUCUGCUCAGGACAGUGGUGGAGCUGGGUCUUGAACCCCAGUCUGCACCUAAAAAACUAAAGGAAAUGGAUUU: 0.371
AAGCUCCUUGGCCUCUGAGGACCCCUAAUAACCCAGAAUCUUGGGGAGCCCUUUCCUUUGAGAAUACAAGCAUGUCUCUGAGGCAUCCUCAGACCUGGAGUGCUCCCCAA: 0.595
UUUUAGUGCUAAAAGGCUUUUAUAAAUUAUAAUAAGCCUCAGGAAGAAGCAAGCCUCUUACAUAUUAGGAAAAUACCUGAAAAGUUAGUUCAUUUGUCAGAUCCAGUUUU: 0.601
CCCCACCAUACAAGAGUUUUAGGUGAUUGAGUGGGUGGAACCAGCUGGAGCCAGGUGGGAGGGGCCUUUACAUUGCCAGCAGGGCCCCAAAGAAUUGAGAUUGUGUAUGG: 1.25
ACAAUGACGAAUCAUUCCAAGGCCAAGCUGCAACUGAGCCACUCACCCACCAACAGGAAGGCCUGGUGAAGGUUCAGGAAGUCUGGAGAGUCUCCCCAGACCAAGGUCAG: 0.365
GACAAUUUGUUCAAGGAAGUUCAUCUAAAAUAAUCUGGAGGCCUUGAAAAUGAUCCCUCUAAAAUGCUGUUGAGCUUGUGUUCAGUGUAGCAGGAGGAUCUGAACUUUUC: 0.869
CGCCUGUGUGAACCAGGCACAGGAAAACAAACUCCUACAGGCUGUCAUGCUCCUGCAGGAAGAUGAGUCAUUUUUAGCACCACCUGAAGACUUUUAUUUAAAACAGCUUU: 0.443

Some of these lines once more (sample 1):
GDFPVMFMPLYSIIY [K10L]: 3.11 fold
GDFPVMFGPKYSIIY [M8G]: 1.17 fold
GDFPVYFMPKYSIIY [M6Y]: 6.13 fold
HDFPVMFMPKYSIIY [G1H]: 7.52 fold
GDFPPMFMPKYSIIY [V5P]: 4.18 fold
GDFPLMFMPKYSIIY [V5L]: 11.6 fold
GDFPVMVMPKYSIIY [F7V]: 1.53 fold
GDFPVMFMPKYTIIY [S12T]: 4.79 fold
GDFPVMFMPKYSDIY [I13D]: 0.631 fold
GDFPVMFMPKYSITY [I14T]: 2.12 fold
GDFPVMFMPKYSIIA [Y15A]: 1.79 fold
GDFPVMFMPKYSIMY [I14M]: 1.81 fold
GDFPVMFMPKYSEIY [I13E]: 0.812 fold
GDFPEMFMPKYSIIY [V5E]: 4.55 fold
